{"data": "Measurements collected from several papers", "USP20 ZnF-UBD domain": "Ubiquitin carboxyl-terminal hydrolase 20, ZnF-UBD domain (USP20, Homo sapiens, UniProt Q9Y2K6)", "note": "Each line is one published result; not all experiments were run side by side. Values joined by “and” are separate records of one study, mostly repeats; a detail may differ. ± gives the spread as reported.", "sequence of UniProt Q9Y2K6 (whole entry, looked up)": "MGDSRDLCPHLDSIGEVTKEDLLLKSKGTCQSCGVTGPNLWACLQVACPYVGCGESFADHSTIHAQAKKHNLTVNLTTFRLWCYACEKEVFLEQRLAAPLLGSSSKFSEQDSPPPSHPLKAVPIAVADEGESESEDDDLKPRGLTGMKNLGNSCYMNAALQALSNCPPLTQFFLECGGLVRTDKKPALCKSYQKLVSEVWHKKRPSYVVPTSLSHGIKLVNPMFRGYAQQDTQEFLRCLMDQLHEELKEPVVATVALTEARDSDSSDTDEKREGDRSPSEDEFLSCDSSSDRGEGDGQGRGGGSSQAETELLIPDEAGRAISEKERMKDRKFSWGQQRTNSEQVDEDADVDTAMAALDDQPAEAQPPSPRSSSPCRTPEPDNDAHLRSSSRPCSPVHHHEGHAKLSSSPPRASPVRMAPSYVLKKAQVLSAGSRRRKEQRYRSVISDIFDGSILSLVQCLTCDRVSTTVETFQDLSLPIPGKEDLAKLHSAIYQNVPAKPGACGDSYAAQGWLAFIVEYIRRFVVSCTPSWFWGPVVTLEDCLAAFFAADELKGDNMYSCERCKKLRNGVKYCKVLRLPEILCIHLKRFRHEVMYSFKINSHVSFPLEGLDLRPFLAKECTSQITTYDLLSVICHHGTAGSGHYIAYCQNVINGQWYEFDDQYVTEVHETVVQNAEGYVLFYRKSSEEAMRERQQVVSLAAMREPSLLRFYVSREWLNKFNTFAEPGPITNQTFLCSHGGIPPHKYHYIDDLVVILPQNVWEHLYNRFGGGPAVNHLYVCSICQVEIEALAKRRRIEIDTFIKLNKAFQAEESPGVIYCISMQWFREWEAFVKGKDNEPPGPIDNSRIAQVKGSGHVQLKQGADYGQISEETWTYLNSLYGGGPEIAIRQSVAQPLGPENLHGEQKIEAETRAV", "sequence of UniProt Q9UNQ0 (whole entry, looked up)": "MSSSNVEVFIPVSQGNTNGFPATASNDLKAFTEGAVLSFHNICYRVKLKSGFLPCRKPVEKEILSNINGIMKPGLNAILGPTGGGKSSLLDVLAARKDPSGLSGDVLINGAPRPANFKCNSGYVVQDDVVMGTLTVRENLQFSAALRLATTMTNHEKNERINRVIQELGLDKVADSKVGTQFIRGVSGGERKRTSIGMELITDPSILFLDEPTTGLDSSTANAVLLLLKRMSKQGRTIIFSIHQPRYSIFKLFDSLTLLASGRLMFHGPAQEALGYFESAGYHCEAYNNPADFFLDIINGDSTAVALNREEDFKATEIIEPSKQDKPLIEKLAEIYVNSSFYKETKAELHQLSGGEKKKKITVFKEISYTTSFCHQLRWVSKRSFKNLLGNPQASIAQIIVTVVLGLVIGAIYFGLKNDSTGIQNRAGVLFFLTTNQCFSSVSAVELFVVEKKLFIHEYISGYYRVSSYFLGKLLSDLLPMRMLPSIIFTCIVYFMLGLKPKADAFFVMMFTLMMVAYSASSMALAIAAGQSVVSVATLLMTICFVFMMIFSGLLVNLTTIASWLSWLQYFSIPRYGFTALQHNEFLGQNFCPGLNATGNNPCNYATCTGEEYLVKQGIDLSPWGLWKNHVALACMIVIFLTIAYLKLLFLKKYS"}
{"Compound": "O=Cc1cc2c(cc1F)C(=O)N(C1CCC(=O)NC1=O)C2 (stereo not shown)", "system": "CD-1 mice", "conditions": "intravenous, 1 mg/kg, 4 h", "measurement": "plasma concentration", "value": "not detected"}
{"Compound": "Cn1cc([C@H]2C[C@H]3CSC(N)=N[C@@]3(c3ccc(F)cc3F)CO2)cn1", "system": "male 129/SVE mouse, plasma", "conditions": "subcutaneous, 50 mg/kg, 18 h", "measurement": "plasma concentration", "value": "25 nM"}
{"Compound": "O=C(O)CCc1cnccn1", "target or system": "USP20 ZnF-UBD domain", "measurement": "Kd", "value": "> 1000 µM"}
{"Compound": "C[C@H]1O[C@@H](O[C@H]2CC[C@@]3(C)[C@@H](CC[C@]4(C)[C@@H]3C=C[C@]35OC[C@@]6(CCC(C)(C)C[C@H]63)[C@@H](O)C[C@]54C)[C@]2(C)CO)[C@H](O)[C@@H](O[C@@H]2O[C@H](CO)[C@@H](O)[C@H](O)[C@H]2O)[C@H]1O", "test": "UHPLC-MS/MS", "system": "mouse, plasma", "conditions": "oral, 50 mg/kg, 4 h", "measurement": "plasma concentration", "value": "1.03 ng/mL"}
{"Compound": "CCN1CCN(Cc2ccc(NC(=O)c3ccc(C)c(NC(=O)c4cncc(-c5cccs5)c4)c3)cc2C(F)(F)F)CC1", "test": "LC-MS/MS", "system": "C57BL/6 mouse, plasma", "conditions": "intraperitoneal, 10 mg/kg single dose, 8 h", "measurement": "plasma concentration", "value": "13 ng/mL and 36 ng/mL and 42 ng/mL"}
{"Compound": "Cc1cc2sc(N)nc2c2cccnc12", "test": "LC-MS", "system": "BALB/c mice, female", "conditions": "intraperitoneal, 30 mg/kg, 0.25 h", "measurement": "plasma concentration", "value": "1570 ± 120 ng/mL"}
{"Compound": "C[C@]12CCCN1CC1=NNC(=O)c3cc(F)cc4[nH]c2c1c34", "target or system": "Broad substrate specificity ATP-binding cassette transporter ABCG2 (ABCG2, Homo sapiens, UniProt Q9UNQ0)", "test": "substrate", "system": "membrane vesicles", "conditions": "30 µM, together with: AMP", "measurement": "uptake rate", "value": "8.91 ± 3.22 pmol/min/mg"}
{"Compound": "Cc1cc(Nc2ccc(S(F)(F)(F)(F)F)cc2)n2nc(C(C)(F)F)nc2n1", "target or system": "Plasmodium falciparum", "test": "LC-MS/MS", "system": "malaria patients, plasma", "conditions": "oral, 400 mg", "measurement": "AUC(0-168 h)", "value": "638 µg·h/mL"}
{"Compound": "O=S(=O)(c1ccc(-c2ccc3nccc(Nc4ccncn4)c3c2)cc1)N1CCOCC1", "system": "female BALB/c mice, plasma", "conditions": "intraperitoneal, 10 mg/kg, 1 h", "measurement": "plasma concentration", "value": "1450 ng/mL and 1380 ng/mL"}
{"Compound": "Cc1c(-c2ccc(N3CCc4cccc(C(=O)Nc5nc6ccccc6s5)c4C3)nc2C(=O)O)cnn1CC12CC3(C)CC(C)(C1)CC(OCCNCC[C@H](O)CO)(C3)C2", "system": "anaesthetized male beagle dog", "conditions": "iv infusion, 0.1 mg/kg/min, 10 min", "measurement": "plasma concentration", "value": "85 ng/mL"}
{"Compound": "CC(=O)N(C)C1CCN(c2cc(F)cc(NC(=O)c3cc4c(F)ccc(C)c4[nH]3)c2)C1 (stereo not shown)", "system": "CD1 mouse, plasma", "conditions": "intravenous, 1 mg/kg, 0.05 h", "measurement": "plasma concentration", "value": "1260 ng/mL"}
{"Compound": "C[C@@H]1CCO[C@H]2Cn3cc(C(=O)NCc4ccc(F)cc4F)c(=O)c(O)c3C(=O)N12", "test": "population PK, post-hoc", "system": "children, 25 to <30 kg, plasma", "conditions": "oral, 25 mg film-coated tablet, 24 h, steady state, geometric mean", "measurement": "plasma concentration", "value": "495 ng/mL"}
{"Compound": "O=C(O)CCn1cccn1", "target or system": "USP20 ZnF-UBD domain", "measurement": "Kd", "value": "182 µM"}
{"note": "A few entries again:"}
{"Compound": "O=S(=O)(c1ccc(-c2ccc3nccc(Nc4ccncn4)c3c2)cc1)N1CCOCC1", "system": "female BALB/c mice, plasma", "conditions": "intraperitoneal, 10 mg/kg, 1 h", "measurement": "plasma concentration", "value": "1450 ng/mL and 1380 ng/mL"}
{"Compound": "Cc1c(-c2ccc(N3CCc4cccc(C(=O)Nc5nc6ccccc6s5)c4C3)nc2C(=O)O)cnn1CC12CC3(C)CC(C)(C1)CC(OCCNCC[C@H](O)CO)(C3)C2", "system": "anaesthetized male beagle dog", "conditions": "iv infusion, 0.1 mg/kg/min, 10 min", "measurement": "plasma concentration", "value": "85 ng/mL"}
